Results from different studies.
Each line is one published result; not all experiments were run side by side.
RET: Proto-oncogene tyrosine-protein kinase receptor Ret (RET, Homo sapiens, UniProt P07949)
Chain of UniProt P07949 (whole entry, looked up): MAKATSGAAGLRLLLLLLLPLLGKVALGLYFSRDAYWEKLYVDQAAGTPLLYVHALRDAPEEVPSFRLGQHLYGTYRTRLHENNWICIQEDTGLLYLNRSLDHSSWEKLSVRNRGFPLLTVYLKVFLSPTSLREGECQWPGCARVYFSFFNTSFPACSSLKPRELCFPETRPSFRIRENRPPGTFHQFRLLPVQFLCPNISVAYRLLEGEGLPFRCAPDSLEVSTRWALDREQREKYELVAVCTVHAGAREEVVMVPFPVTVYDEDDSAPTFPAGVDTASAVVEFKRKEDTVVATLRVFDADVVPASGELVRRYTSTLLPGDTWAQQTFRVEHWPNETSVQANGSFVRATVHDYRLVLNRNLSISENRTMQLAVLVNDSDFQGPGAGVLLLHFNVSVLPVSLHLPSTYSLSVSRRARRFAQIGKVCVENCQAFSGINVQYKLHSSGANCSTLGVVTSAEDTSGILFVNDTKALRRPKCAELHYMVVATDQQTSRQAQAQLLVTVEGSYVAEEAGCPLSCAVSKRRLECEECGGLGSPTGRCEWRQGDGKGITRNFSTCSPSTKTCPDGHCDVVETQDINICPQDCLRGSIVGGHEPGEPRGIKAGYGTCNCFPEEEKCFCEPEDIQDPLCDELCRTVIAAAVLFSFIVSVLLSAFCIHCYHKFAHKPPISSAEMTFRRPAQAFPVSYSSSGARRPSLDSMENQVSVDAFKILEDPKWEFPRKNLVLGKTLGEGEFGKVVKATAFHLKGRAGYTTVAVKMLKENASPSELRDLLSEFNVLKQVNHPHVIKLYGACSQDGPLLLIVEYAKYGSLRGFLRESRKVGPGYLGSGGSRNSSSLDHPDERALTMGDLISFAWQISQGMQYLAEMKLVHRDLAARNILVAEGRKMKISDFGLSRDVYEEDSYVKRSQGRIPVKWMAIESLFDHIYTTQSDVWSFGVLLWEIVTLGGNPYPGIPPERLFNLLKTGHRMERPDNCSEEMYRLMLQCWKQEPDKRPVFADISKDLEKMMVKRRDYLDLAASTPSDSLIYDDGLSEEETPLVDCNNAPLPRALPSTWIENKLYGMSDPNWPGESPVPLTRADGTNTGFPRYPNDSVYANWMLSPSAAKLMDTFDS
SLC2A1: Solute carrier family 2, facilitated glucose transporter member 1 (SLC2A1, Homo sapiens, UniProt P11166)
Chain of UniProt P11166 (whole entry, looked up): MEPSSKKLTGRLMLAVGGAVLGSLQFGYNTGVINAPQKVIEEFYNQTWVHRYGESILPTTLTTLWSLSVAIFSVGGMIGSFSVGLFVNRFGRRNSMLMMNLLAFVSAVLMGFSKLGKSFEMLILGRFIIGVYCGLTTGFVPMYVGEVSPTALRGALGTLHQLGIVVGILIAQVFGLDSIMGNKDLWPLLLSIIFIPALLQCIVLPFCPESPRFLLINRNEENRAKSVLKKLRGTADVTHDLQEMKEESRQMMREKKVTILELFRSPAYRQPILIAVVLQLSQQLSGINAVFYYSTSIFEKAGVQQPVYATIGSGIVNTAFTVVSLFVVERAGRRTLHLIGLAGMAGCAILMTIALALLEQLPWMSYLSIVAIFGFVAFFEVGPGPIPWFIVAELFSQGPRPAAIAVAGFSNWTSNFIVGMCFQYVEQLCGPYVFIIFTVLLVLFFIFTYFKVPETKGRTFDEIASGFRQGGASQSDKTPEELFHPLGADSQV
MAPK3: Mitogen-activated protein kinase 3 (MAPK3, Homo sapiens, UniProt P27361)
Chain of UniProt P27361 (whole entry, looked up): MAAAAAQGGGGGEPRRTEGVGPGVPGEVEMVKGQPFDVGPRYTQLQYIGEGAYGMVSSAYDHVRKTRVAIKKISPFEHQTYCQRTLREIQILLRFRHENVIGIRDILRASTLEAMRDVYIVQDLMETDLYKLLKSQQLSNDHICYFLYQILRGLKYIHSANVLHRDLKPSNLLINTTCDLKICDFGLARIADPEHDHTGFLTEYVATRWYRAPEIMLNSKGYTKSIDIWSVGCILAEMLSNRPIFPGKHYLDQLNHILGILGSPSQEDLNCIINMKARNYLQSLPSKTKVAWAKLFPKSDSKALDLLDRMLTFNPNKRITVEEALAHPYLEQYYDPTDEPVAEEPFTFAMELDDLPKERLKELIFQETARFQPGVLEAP
AAK1: AP2-associated protein kinase 1 (AAK1, Homo sapiens, UniProt Q2M2I8)
Chain of UniProt Q2M2I8 (whole entry, looked up): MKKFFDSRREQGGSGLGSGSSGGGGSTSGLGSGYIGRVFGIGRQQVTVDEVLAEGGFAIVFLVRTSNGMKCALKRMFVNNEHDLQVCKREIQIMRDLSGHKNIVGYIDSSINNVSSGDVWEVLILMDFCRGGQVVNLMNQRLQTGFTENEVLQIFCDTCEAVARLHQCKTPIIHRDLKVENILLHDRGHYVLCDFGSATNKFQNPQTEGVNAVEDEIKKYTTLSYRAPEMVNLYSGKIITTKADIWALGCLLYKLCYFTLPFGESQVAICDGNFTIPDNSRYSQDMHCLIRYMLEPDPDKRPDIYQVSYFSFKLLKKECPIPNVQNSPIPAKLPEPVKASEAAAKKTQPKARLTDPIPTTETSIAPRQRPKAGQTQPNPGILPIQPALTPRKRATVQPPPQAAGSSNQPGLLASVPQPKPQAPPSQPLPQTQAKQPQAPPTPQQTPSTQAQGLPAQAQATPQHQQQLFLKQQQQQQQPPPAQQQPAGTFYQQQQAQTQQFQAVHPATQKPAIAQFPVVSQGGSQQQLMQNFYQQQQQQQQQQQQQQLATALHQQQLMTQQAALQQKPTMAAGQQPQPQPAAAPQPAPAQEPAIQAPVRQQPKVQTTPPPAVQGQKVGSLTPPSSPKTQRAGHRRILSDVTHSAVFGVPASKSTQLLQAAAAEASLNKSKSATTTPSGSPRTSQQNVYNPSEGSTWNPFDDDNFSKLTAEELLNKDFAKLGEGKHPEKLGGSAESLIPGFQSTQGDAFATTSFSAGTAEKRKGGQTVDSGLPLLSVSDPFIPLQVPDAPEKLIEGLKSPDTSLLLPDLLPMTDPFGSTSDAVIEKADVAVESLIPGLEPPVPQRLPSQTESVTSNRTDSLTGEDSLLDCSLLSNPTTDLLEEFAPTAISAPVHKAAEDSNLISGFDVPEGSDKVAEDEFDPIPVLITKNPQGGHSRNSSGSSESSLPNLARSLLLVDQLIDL
MPO: Myeloperoxidase (MPO, Homo sapiens, UniProt P05164)
Chain of UniProt P05164 (whole entry, looked up): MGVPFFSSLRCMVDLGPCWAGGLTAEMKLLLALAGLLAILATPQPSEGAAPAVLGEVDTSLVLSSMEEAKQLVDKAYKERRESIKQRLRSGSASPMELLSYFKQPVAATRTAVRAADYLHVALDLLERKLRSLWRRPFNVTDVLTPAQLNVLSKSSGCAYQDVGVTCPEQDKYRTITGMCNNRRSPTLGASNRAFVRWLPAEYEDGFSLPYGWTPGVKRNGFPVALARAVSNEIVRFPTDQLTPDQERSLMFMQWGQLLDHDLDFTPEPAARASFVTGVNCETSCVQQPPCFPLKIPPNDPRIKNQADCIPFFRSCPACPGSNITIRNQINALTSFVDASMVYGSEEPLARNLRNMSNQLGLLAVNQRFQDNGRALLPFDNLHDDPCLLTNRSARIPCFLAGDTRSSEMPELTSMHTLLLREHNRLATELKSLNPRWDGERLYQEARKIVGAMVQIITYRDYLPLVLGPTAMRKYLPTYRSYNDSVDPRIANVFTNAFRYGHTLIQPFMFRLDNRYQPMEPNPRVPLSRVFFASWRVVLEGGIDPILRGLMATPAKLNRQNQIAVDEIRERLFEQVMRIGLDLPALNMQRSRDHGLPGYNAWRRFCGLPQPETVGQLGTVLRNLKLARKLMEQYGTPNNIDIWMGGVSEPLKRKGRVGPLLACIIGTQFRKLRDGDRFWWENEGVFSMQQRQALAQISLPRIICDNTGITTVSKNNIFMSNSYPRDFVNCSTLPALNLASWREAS
Chain of UniProt P41743 (whole entry, looked up): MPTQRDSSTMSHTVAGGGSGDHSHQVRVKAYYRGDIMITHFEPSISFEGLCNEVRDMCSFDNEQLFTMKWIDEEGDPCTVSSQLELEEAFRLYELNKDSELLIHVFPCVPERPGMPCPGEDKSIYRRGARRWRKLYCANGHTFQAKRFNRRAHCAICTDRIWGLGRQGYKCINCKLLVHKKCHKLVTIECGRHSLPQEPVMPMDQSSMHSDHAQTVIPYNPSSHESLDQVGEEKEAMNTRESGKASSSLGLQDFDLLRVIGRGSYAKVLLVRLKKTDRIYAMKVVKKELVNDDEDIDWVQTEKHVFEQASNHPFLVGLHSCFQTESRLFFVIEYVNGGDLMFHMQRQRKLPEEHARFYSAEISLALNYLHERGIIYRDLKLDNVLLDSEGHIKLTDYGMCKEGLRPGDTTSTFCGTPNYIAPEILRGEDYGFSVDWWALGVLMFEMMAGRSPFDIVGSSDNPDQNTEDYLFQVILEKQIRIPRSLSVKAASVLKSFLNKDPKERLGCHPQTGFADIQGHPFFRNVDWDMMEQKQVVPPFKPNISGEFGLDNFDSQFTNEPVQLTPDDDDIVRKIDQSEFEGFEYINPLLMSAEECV
Chain of UniProt Q15208 (whole entry, looked up): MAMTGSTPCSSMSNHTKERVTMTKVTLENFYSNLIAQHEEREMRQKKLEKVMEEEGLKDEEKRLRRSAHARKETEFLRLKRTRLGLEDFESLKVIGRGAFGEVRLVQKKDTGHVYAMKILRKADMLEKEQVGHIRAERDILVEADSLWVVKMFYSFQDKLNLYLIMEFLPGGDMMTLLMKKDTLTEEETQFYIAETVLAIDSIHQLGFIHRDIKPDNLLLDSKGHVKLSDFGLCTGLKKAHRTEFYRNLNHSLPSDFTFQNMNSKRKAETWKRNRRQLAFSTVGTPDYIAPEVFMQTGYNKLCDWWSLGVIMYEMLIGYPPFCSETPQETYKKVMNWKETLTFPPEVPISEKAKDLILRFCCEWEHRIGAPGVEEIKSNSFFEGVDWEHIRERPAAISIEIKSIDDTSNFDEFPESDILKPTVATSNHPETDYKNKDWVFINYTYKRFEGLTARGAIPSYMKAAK

CCOc1ccc(NC(=O)Nc2cc(OC)c3nc(NC(=O)c4ccccc4)sc3c2)cc1  remaining activity (RET; enzyme activity, inhibitor, radiometric; 10 µM): 85%
C/C(=N\O)c1ccc(-c2ccc(OC(F)(F)F)cc2)c(Cl)c1O  remaining activity (SLC2A1; transporter uptake, inhibitor, radiometric; NCI-H1299; 30 µM): 81%
CC[C@H](C)[C@H](NC(=O)[C@H](CCC(N)=O)NC(=O)[C@@H](NC(=O)[C@H](CCSC)NC(=O)[C@H](CCCCN)NC(=O)[C@H](CO)NC(=O)[C@@H](NC(=O)[C@H](CCSC)NC(=O)[C@H](CC(C)C)NC(=O)[C@H](CC(N)=O)NC(=O)[C@@H](NC(=O)[C@@H](NC(=O)[C@H](CO)NC(=O)[C@H](CC(C)C)NC(=O)[C@H](C)NC(=O)[C@H](CCCNC(=N)N)NC(=O)[C@H](CCC(=O)O)NC(=O)[C@H](Cc1ccc(O)cc1)NC(=O)[C@H](Cc1ccccc1)NC(=O)[C@H](C)NC(=O)[C@H](CC(N)=O)NC(=O)[C@@H](N)CCCCN)[C@@H](C)CC)[C@@H](C)CC)[C@@H](C)O)C(C)C)C(=O)N[C@@H](CC(N)=O)C(=O)N[C@H](C(=O)O)C(C)C  remaining activity (MAPK3; enzyme activity, inhibitor, radiometric; 500 µM, 20 min): 46%
C=CC(=O)N1CCC(COCC(=O)N2CCN(c3nc(-c4cnc(N)nc4C(F)F)nc(N4CCOC[C@@H]4C)n3)CC2)CC1  remaining binding (Protein kinase C iota type (PRKCI, Homo sapiens, UniProt P41743); binding, competition with immobilised ligand; 1 µM): 100%
Cc1nn(CC(F)(F)F)cc1Nc1nccc(NCc2ccc(S(N)(=O)=O)cc2)n1  remaining activity (AAK1; enzyme activity, inhibitor, radiometric; 1 µM): 82%
CCCN(O)N=Nc1ccc(S(=O)(=O)Nc2cc(C)on2)cc1  inhibition (DPPH scavenging, absorbance; 120 µg/mL): 20.2%
N=C(N)c1ccc(-c2ccc(-c3ccc(C(=N)N)nc3)o2)cc1  remaining activity (Protein arginine N-methyltransferase 5 (PRMT5, Homo sapiens, UniProt O14744); enzyme activity, inhibitor, radiometric; 20 µM): 83.6%
Cc1cc([C@@H](C)Nc2ccccc2C(=O)O)c2nc(N3CCC(F)(F)CC3)c(C#N)c(=O)n2c1  remaining activity (Phosphatidylinositol 4-phosphate 5-kinase type-1 alpha (PIP5K1A, Homo sapiens, UniProt Q99755); enzyme activity, inhibitor, ADP detection; 10 µM): 91%
Cc1ccc(-c2nn3c(=O)cc(CNC(=O)Nc4ccc(C)c(Cl)c4)nc3s2)cc1  remaining activity (RET; enzyme activity, inhibitor, radiometric; 10 µM): 105%
NS(=O)(=O)c1ccc(CNc2nc(Nc3cccc(CN4CCOCC4)c3)ncc2Br)cc1  remaining activity (AAK1; enzyme activity, inhibitor, radiometric; 1 µM): 12%
NC1=Nc2nc3ccccc3n2C(c2c[nH]nc2-c2cccc(O)c2)N1 (stereo not drawn)  remaining activity (RET; enzyme activity, inhibitor, radiometric; 10 µM): 99.1%
CCCCC(=O)Nc1ccc(-c2ccc3ncn(CCC)c(=O)c3c2)cn1  remaining binding (cGMP-dependent protein kinase 2 (PRKG2, Homo sapiens, UniProt Q13237); binding, competition with immobilised ligand; 0.5 µM): 100%
O=C1O[C@H]([C@@H](O)CO)C(O)=C1O  inhibition (DPPH scavenging, absorbance; 30 µg/mL): 51.4%
Cc1ccc(Nc2nc(N3CCN(C(=O)c4ccco4)CC3)nc3[nH]ncc23)cc1  remaining activity (RET; enzyme activity, inhibitor, radiometric; 0.1 µM): 130%
CCn1c(SCc2cc(Cl)cc(S(N)(=O)=O)c2)nc2cc(S(N)(=O)=O)ccc21  IC50 (Carbonic anhydrase 9 (CA9, Homo sapiens, UniProt Q16790); enzyme activity, inhibitor): 44 nM
COc1ccc(-n2nc(C(=O)Nc3ccc4c(c3)OCO4)c(=O)cc2OC)cc1OC  remaining activity (RET; enzyme activity, inhibitor, radiometric; 0.1 µM): 120%
C/C(=N\O)c1ccc(-c2cccc(OC(F)(F)F)c2)c(Cl)c1O  remaining activity (SLC2A1; transporter uptake, inhibitor, radiometric; NCI-H1299; 30 µM): 75%
C1=C/COCc2cc(ccc2OCCN2CCCC2)Nc2nccc(n2)-c2cccc(c2)COC/1  remaining binding (Epidermal growth factor receptor (EGFR, Homo sapiens, UniProt P00533, G719S); binding; 0.1 µM): 84%
Cc1cc(NC(=O)Nc2c(NC3CCCC3)c3ccccc3oc2=O)ccc1Br  remaining activity (RET; enzyme activity, inhibitor, radiometric; 0.1 µM): 97.2%
NC/C(=C\F)COc1cccc(Cn2c(=S)[nH]c(=O)c3[nH]cnc32)c1  remaining activity (MPO; enzyme activity, inhibitor; 0.3125 µM): 35.6%
C/C(=N\O)c1ccc(-c2ccc(O)c(C)c2)c(Cl)c1O  remaining activity (SLC2A1; transporter uptake, inhibitor, radiometric; NCI-H1299; 30 µM): 8%
COc1ccc(NC(=O)Nc2ccccc2-c2nc(-c3ccoc3)n[nH]2)cc1  remaining activity (RET; enzyme activity, inhibitor, radiometric; 10 µM): 53.6%
COc1ccc(-c2ccc(/C(C)=N/O)c(O)c2Cl)cc1Cl  remaining activity (SLC2A1; transporter uptake, inhibitor, radiometric; NCI-H1299; 30 µM): 79%
COc1ccc(Cl)cc1-c1cc(=O)[nH]c(=S)n1CC(N)=O  remaining activity (MPO; enzyme activity, inhibitor; 0.625 µM): 71.9%
CC(=NNC(=O)c1ccccc1)c1ccc(Nc2nnc(-c3ccc(Cl)cc3)c3ccccc23)cc1  cell death (HepG2; cell growth or viability, MTT; 0.312 µM): 0.43%
CNc1ncc2c(/C=C/C(=O)N3CCC(OC)CC3)nn(Cc3cccc(C(F)(F)F)c3)c2n1  remaining activity (Serine/threonine-protein kinase 38 (STK38, Homo sapiens, UniProt Q15208); enzyme activity, inhibitor, radiometric; 1 µM): 106%
COc1cc(-c2cncc3c2CN(C)Cc2cc(N4CCNCC4)ccc2-3)cc(OC)c1OC  remaining activity (Testis-specific serine/threonine-protein kinase 4 (TSSK4, Homo sapiens, UniProt Q6SA08); enzyme activity, inhibitor; 1 µM): 104%
CC[C@H](C)[C@H](NC(=O)[C@H](CCC(N)=O)NC(=O)[C@H](CC(C)C)NC(=O)[C@H](CCSC)NC(=O)[C@H](CCCCN)NC(=O)[C@H](CO)NC(=O)[C@H](CO)NC(=O)[C@H](CCSC)NC(=O)[C@H](CC(C)C)NC(=O)[C@H](CC(N)=O)NC(=O)[C@@H](NC(=O)[C@@H](NC(=O)[C@H](CO)NC(=O)[C@H](CC(C)C)NC(=O)[C@H](CS)NC(=O)[C@H](CCCNC(=N)N)NC(=O)[C@H](CC(=O)O)NC(=O)[C@H](Cc1c[nH]c2ccccc12)NC(=O)[C@H](Cc1ccccc1)NC(=O)[C@H](C)NC(=O)[C@H](CCC(=O)O)NC(=O)[C@@H](N)CCCCN)C(C)C)[C@@H](C)CC)C(=O)N[C@@H](CC(N)=O)C(=O)N[C@@H](C)C(=O)O  remaining activity (MAPK3; enzyme activity, inhibitor, radiometric; 10 µM, 20 min): 100%
CCCOc1ccc(OC)c(F)c1C(=O)c1ccc(C(=O)N[C@@H]2CNC[C@H]2NC(=O)c2ccc3[nH]ncc3c2)cc1  remaining activity (Protein kinase C delta type (PRKCD, Homo sapiens, UniProt Q05655); enzyme activity, inhibitor; 10 µM): 15%
CC(=NNC(=O)c1ccc(N)cc1)c1ccc(Nc2nnc(-c3ccc(Cl)cc3)c3ccccc23)cc1  cell death (HepG2; cell growth or viability, MTT; 2.5 µM): 79.2%

Excerpt of the above:
Cc1cc(NC(=O)Nc2c(NC3CCCC3)c3ccccc3oc2=O)ccc1Br  remaining activity (RET; enzyme activity, inhibitor, radiometric; 0.1 µM): 97.2%
NC/C(=C\F)COc1cccc(Cn2c(=S)[nH]c(=O)c3[nH]cnc32)c1  remaining activity (MPO; enzyme activity, inhibitor; 0.3125 µM): 35.6%
C/C(=N\O)c1ccc(-c2ccc(O)c(C)c2)c(Cl)c1O  remaining activity (SLC2A1; transporter uptake, inhibitor, radiometric; NCI-H1299; 30 µM): 8%
